Published values pooled from the literature.
Each line is one published result; not all experiments were run side by side. Numbers after ± are the reported error.

COc1ccc(CCCCCCCCC(=O)c2c(OC)cccc2OC)cc1OC  CC50 (Vero E6/TMPRSS2; MTT): 27 µM
O=c1cc[s+]([O-])c2ccc(Cl)cc12 (single isomer, unassigned; (+))  CC50 (U-937; MTT; 72 h): 636 µM
C1CCCCCC2(CCCCC1)OOCCCOO2  CC50 (HepG2/NTCP; cytotoxicity, trypan blue cell count; 9 days): 13 µM
CSCC[C@@H](C=O)NC(=O)[C@H](CC(C)C)NC(=O)[C@H](CC(C)C)NC(C)=O  CC50 (MRC-5; 5 days): > 100 µM
Cc1ccc(NCCN(C)CCNc2ccnc3cc(Cl)ccc23)c2c(=O)c3ccccc3sc12  CC50 (Vero E6 uninfected; cell viability, CellTiter-Glo; 72 h): > 30 µM
CC[C@H](C)[C@H](NC(=O)[C@H](CCC(=O)O)NC(=O)[C@H](CCC(=O)O)NC(=O)[C@H](CO)NC(=O)[C@H](CCCCN)NC(=O)[C@H](CCCCN)NC(=O)[C@H](CC(C)C)NC(=O)[C@H](CC(C)C)NC(=O)[C@H](CCC(=O)O)NC(=O)[C@H](CCC(=O)O)NC(=O)[C@H](C)NC(=O)[C@H](CCCCN)NC(=O)[C@H](CCCCN)NC(=O)[C@H](CC(C)C)NC(=O)[C@H](CCCCN)NC(=O)[C@H](CCC(=O)O)NC(=O)[C@H](CCC(=O)O)NC(=O)[C@H](C)NC(=O)[C@H](CCCCN)NC(=O)[C@H](CCCCN)NC(=O)[C@H](CC(C)C)NC(=O)[C@H](CC(N)=O)NC(=O)[C@H](CCC(=O)O)NC(=O)[C@H](CCC(=O)O)NC(=O)[C@@H](NC(C)=O)C(C)C)C(=O)N[C@@H](CC(C)C)C(=O)N[C@@H](CCCCN)C(=O)N[C@@H](CCCCN)C(N)=O  CC50 (B95a; MTT; 8 days, 37 °C): > 10 µM
CC(C)C[C@@H]1NC(=O)[C@@H](Cc2c[nH]c3ccccc23)NC(=O)[C@H](CCCNC(=N)N)NC(=O)[C@@H](CCC(=O)O)NC(=O)[C@H](CCC(N)=O)NC(=O)[C@@H](CCC(=O)O)NC(=O)[C@H](CCCNC(=N)N)NC(=O)[C@@H](Cc2c[nH]c3ccccc23)NC1=O  CC50 (NCI cell lines; cytotoxicity): 36 µM
CCCCCCCC1=CC(=O)c2ccccc2S1(=O)=O  CC50 (U-937; MTT; 72 h): 460 µM
C=C1C(=O)OC2CC(C)C3C=CC(=O)C3(C)C(O[Si](C)(C)C)C12 (stereo not drawn)  CC50 (BALB/c mouse splenocytes; propidium iodide flow cytometry; 48 h, 10% fetal calf serum): 0.4 µM
OC[C@H]1[C@@H](O)[C@@H](O)CN1Cc1ccc(I)cc1  CC50 (MRC-5; MTS; 72 h): > 200 µM
O=c1cc[s+]([O-])c2ccccc12 (racemic)  CC50 (U-937; MTT; 72 h): 966 µM
CC[C@H](C)[C@H](NC(=O)[C@H](C)NC(=O)[C@H](CC(N)=O)NC(=O)CNC(=O)[C@H](CC(C)C)NC(=O)[C@H](CC(N)=O)NC(=O)[C@@H](NC(=O)CNC(=O)[C@@H](NC(C)=O)C(C)C)[C@@H](C)O)C(=O)N[C@@H](C)C(=O)N[C@@H](CCCCN)C(=O)N[C@@H](CC(C)C)C(=O)N[C@@H](CCC(=O)O)C(=O)N[C@@H](CC(=O)O)C(=O)N[C@@H](C)C(=O)N[C@@H](CCCCN)C(=O)N[C@@H](CCC(=O)O)C(=O)N[C@@H](CC(C)C)C(=O)N[C@@H](CC(C)C)C(=O)N[C@@H](CCC(=O)O)C(=O)N[C@@H](CO)C(=O)N[C@@H](CO)C(=O)N[C@@H](CC(=O)O)C(=O)N[C@@H](CCC(N)=O)C(=O)N[C@H](C(=O)N[C@@H](CC(C)C)C(=O)N[C@@H](CCCNC(=N)N)C(=O)N[C@@H](CO)C(N)=O)[C@@H](C)CC  CC50 (B95a; MTT; 8 days, 37 °C): > 10 µM
C=C1C(=O)OC2C1CCC(C)=C1C(OC(=O)Nc3ccc(C(F)(F)F)cc3)CC(C)(O)C12 (stereo not drawn)  CC50 (M9-ENL1; cell viability, MTT; 24 h): 4.3 ± 1 µM
CC(C)C[C@H](NC(=O)c1cc2c(OC(F)(F)F)cccc2[nH]1)C(=S)N[C@@H](C[C@@H]1CCNC1=O)C(=O)c1nc2cc(F)ccc2s1  CC50 (VeroE6; 3 d): 50 ± 1.1 µM
C=C1C(=O)OC2CC(C)C3C=CC(=O)C3(C)C(O[Si](C)(C)C(C)C)C12 (stereo not drawn)  CC50 (BALB/c mouse splenocytes; propidium iodide flow cytometry; 48 h, 10% fetal calf serum): 1.1 µM
CC(C)C[C@H](NC(=O)c1cc2c(F)ccc(F)c2[nH]1)C(=O)N[C@@H](C[C@@H]1CCNC1=O)C(=O)c1nc2c(F)cccc2s1  CC50 (VeroE6; WST-8; 3 (unit not given)): > 100 µM
CC[C@H](C)[C@@H]1NC(=O)C(NC(=O)[C@H](C)NC(=O)[C@H](CCC(=O)O)NC(C)=O)CCCC=CCCCC(C(=O)N[C@@H](CCC(N)=O)C(=O)N[C@@H](CCC(N)=O)C(=O)N[C@@H](CC(C)C)C(=O)N[C@@H](CC(C)C)C(=O)N[C@@H](Cc2ccccc2)C(=O)N[C@H](C(=O)N[C@@H](Cc2c[nH]cn2)C(=O)N[C@@H](Cc2ccccc2)C(=O)N[C@@H](CCCNC(=N)N)C(=O)N[C@H](C(=O)NCC(N)=O)[C@@H](C)CC)[C@@H](C)CC)NC(=O)[C@H]([C@@H](C)CC)NC(=O)[C@H](CCCNC(=N)N)NC1=O (stereo partly drawn)  CC50 (MT4 (mock-infected); MTT): > 10 µM
CC(C)C[C@H](NC(=O)c1cc2c(OC(F)(F)F)cccc2[nH]1)C(=O)N[C@@H](C[C@@H]1CCNC1=O)C(=O)c1nc2ccccc2s1  CC50 (VeroE6; WST-8; 3 (unit not given)): > 100 µM
N=C(N)NCCC[C@H]1NC(=O)[C@H](CCCN)NC(=O)[C@@H](Cc2c[nH]cn2)NC(=O)[C@H](Cc2ccc(O)cc2)NC(=O)[C@@H](Cc2ccc(O)cc2)NC(=O)[C@H](Cc2ccccc2)NC(=O)[C@@H](Cc2c[nH]c3ccccc23)NC(=O)[C@H](CO)NC1=O  CC50 (NCI cell lines; cytotoxicity): 7.2 µM
O=C(CCCCCCCCCCc1ccc(O)c(O)c1)c1c(O)cccc1O  CC50 (Vero E6/TMPRSS2; MTT): 32 µM
C=CCCCC(NC(=O)[C@H](CC(C)C)NC(=O)[C@@H](NC(=O)[C@H](CCCNC(=N)N)NC(=O)C(CCCC=C)NC(=O)[C@@H](NC(=O)[C@H](C)NC(=O)[C@H](CCC(=O)O)NC(C)=O)[C@@H](C)CC)[C@@H](C)CC)C(=O)N[C@@H](CCC(N)=O)C(=O)N[C@@H](CC(C)C)C(=O)N[C@@H](CC(C)C)C(=O)N[C@@H](Cc1ccccc1)C(=O)N[C@H](C(=O)N[C@@H](Cc1c[nH]cn1)C(=O)N[C@@H](Cc1ccccc1)C(=O)N[C@@H](CCCNC(=N)N)C(=O)N[C@H](C(=O)NCC(N)=O)[C@@H](C)CC)[C@@H](C)CC (stereo partly drawn)  CC50 (MT4 (mock-infected); MTT): > 10 µM
C=C1C(=O)OC2CC(C)C3C=CC(=O)C3(C)C(OC(C)=O)C12 (stereo not drawn)  CC50 (BALB/c mouse splenocytes; propidium iodide flow cytometry; 48 h, 10% fetal calf serum): 1.4 µM
CC(=O)Oc1ccc(CCCCCCCCC(=O)c2c(OC(C)=O)cccc2OC(C)=O)cc1OC(C)=O  CC50 (Vero E6/TMPRSS2; MTT): 16 µM
C1=[N+]2CCCC[N+]3=Cc4ccc5[n]4[Au-]23[n]2c1ccc2-c1nc2ccccc2nc1-5.F[P-](F)(F)(F)(F)F  CC50 (NCI60 leukemia cell lines; mean of cell lines): > 100 µM

Some of these lines once more:
CCCCCCCC1=CC(=O)c2ccccc2S1(=O)=O  CC50 (U-937; MTT; 72 h): 460 µM
CC(=O)Oc1ccc(CCCCCCCCC(=O)c2c(OC(C)=O)cccc2OC(C)=O)cc1OC(C)=O  CC50 (Vero E6/TMPRSS2; MTT): 16 µM
Cc1ccc(NCCN(C)CCNc2ccnc3cc(Cl)ccc23)c2c(=O)c3ccccc3sc12  CC50 (Vero E6 uninfected; cell viability, CellTiter-Glo; 72 h): > 30 µM
C=C1C(=O)OC2CC(C)C3C=CC(=O)C3(C)C(O[Si](C)(C)C)C12 (stereo not drawn)  CC50 (BALB/c mouse splenocytes; propidium iodide flow cytometry; 48 h, 10% fetal calf serum): 0.4 µM
